Published values of several laboratories.
A part holds a random share of what one study measured.

Set 1 — method: protein-binding microarray; form: double-stranded DNA, one strand shown; matrix: in vitro; concentration: 2540 nM top; notes: 60-bp whole probe; added: salmon DNA 0.4 mg/ml; baseline: random background probes; direction: higher = stronger binding; shared flanks, not repeated: GCCTAGCAC … GTCTTGATTCGCTTGACGCTGCTG
Target: Interferon regulatory factor 3, full length, phosphomimetic (IRF3, Homo sapiens, UniProt Q14653, residues 1-427, S386D/S396D/S398D/S402D/T404D/S405D)
UniProt Q14653, sequence (whole entry, unmodified, looked up): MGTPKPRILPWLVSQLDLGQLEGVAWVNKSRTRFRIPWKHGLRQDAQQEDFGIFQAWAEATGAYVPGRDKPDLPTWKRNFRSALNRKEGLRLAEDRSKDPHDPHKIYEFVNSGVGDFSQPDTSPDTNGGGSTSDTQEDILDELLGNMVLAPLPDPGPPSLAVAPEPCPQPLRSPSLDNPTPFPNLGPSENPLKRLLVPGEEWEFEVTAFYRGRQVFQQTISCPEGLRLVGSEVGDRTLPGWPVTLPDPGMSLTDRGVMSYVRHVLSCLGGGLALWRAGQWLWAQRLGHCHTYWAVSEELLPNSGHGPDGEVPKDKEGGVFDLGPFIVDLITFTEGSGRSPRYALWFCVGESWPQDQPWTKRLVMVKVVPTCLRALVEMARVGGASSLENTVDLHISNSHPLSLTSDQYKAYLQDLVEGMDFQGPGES
Strand | fitted relative affinity [z-score]
TCAAGTGTCAATAATGACACTGTGCTA | -0.0799
GACGAACTGAGTCTCGATACGTGCTAG | 0.028
GACGGACTGGGTATCTGGACGTGCTAG | -0.579
TCAACTTTCCATTTCTGACTGTGCTAG | 6.44
TTAGATATCGGGTTTCCATTAGTGCTA | 2.14
TCATTTTTATCAAATGTGACTGTGCTA | 1.31
GACGGACAGGGACTGGGGACGTGCTAG | -0.858
GACGATATCCGTTTCGAGACGTGCTAG | 3.93
TTTATTTTCAGTATTACCTCGTGCTAG | 2.4
TTAGGTTTCGGTAACGGTTAGTGCTAG | 5.11
GACGATTTGGGGTATCGAGACGTGCTA | 0.0257
TCACTCTTCCTTTACTTACTGTGCTAG | 1.8
GACGGTGTCGACACTGGGGACGTGCTA | 0.55
TTAGGTTTCCTGCTCCTTTAGTGCTAG | 3.36
GACGGAATGGACACTGGGGACGTGCTA | 0.0618
TCAGTTTCTCCTTTGTAACTGTGCTAG | 3.29
TCATATATCTTATCCTAACTGTGCTAG | 1.33
TCATTTCTCTGGTTCTTACTGTGCTAG | 2.2
ATAGGTTTCGGGTTTCGGTTAGTGCTA | 6.46

Set 2 — method: RNA Bind-n-Seq; form: RNA; matrix: in vitro; concentration: 365 nM; baseline: no-protein control; direction: higher = stronger binding
Target: RNA binding protein fox-1 homolog 2, RRM domain, GST-SBP tag (RBFOX2, Homo sapiens, UniProt O43251-10, residues 100-194)
Notes: natural RNA segment, single round, ends assumed
Shared flanks, not repeated: GGGAGUUCUACAGUCCGACGAUC … UGGAAUUCUCGGGUGCCAA
Residues (chain): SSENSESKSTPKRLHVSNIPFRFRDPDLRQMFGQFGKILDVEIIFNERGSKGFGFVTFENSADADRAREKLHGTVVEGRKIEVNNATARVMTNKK
Strand | RBNS enrichment (R)
GCUUAUUCUUGACAUGAGUGCAUUAGUAAUGACUCUUAUGUACUCAUGCAUGGAUCUUUAUGCAAUUUUUUUCCACUACCCAAGGUCUACCUUAGAUACUAGUUGUCUGA | 0.308
UCUCUUCUUGUAGUCUCUAUGGCGUGUCUUUAUGGUGUAAUAAGGUUCUCACGGGUUCAAUCUUUUGUGUUUAGAGAGGCCACGGUUCAGACAAUGGUAUAUAUUUUUGU | 0.523
CUACUUCUAGCUGAUCAUUCUUUUCCCAACAUAUAUUUACAAAUUUACCAAAUUUUACCUAGAAUUUUAGGACCAAAUGGUUCUCACUCUUUAUGCUGCAAAGACCUGGA | 0.588
AGAAUUCUUGUCUACUUUUUUCUUUCCCAAAAAGUGUUUUUUAAUUUCUCUACCAAAGAAAAAAUGAGCAGGUUUAGGUUUUUACAUGACUUAUAUACAUUAGAUAAAAG | 0.586
GAAUGCUGAAAAGUGGCUCAGAUGCAGAGUGUUCUGUGGAGAAACUGCAGCCCCACUUCUGUUUCCCUGGAGUCUCCCAAUGGAUCAUUCAGGAGUGUCCUAUGUGAGAA | 1.33
CUGCUGUCAGAACAGAAGACCUCGCUGCCCUGAGGACAAGCACUUGCCACCACCGUCACUCAGCCCUGGGCGUAGCCGGACAGGAGGAGAGCAGUGAUGCGGAUGGGUAC | 0.228
GUGGCUGCCUGGACCUCAAUACCCCAAGUCCACCUGCCUAUCCAUCCUGCGAGCUCCUUGGGUCCUGCAAUCUCCAGGGCUGCCCCUGUAGGUUGCUUAAAAGGGACAGU | 0.405
AAGGAGGUGCACCCAGGAGGGUCCUCAGAAUCAUGGACUUCUACCCCAUUGCUGGUAGACAAUUUUCAUCUCUGCUGGUGGUGGCCUCUUGUUGACUCUGAAACUUGUCA | 0.473

Set 3 — method: RNA Bind-n-Seq; form: RNA; matrix: in vitro; concentration: not given; baseline: input RNA pool; direction: higher = stronger binding
Target: RING finger protein unkempt homolog, zinc fingers 1-6, GST-SBP tag (UNK, Homo sapiens, UniProt Q9C0B0, residues 30-357)
UniProt Q9C0B0, sequence (30-357, looked up): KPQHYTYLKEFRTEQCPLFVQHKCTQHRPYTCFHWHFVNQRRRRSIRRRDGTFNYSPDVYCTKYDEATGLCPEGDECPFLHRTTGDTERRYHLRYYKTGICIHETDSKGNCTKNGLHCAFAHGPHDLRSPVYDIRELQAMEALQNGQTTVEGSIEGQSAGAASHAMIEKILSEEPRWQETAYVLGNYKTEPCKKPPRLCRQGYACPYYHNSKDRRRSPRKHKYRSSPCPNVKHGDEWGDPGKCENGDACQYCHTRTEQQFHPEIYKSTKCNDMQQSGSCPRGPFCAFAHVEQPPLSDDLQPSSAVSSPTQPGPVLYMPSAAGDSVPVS
Notes: RNA with constant flanks, human and mouse sites, ends assumed
Shared flanks, not repeated: GGGAGUUCUACAGUCCGACGAUC … CAACAGAGGAUUGAGCAUCA
Strand | bound/input enrichment [ratio]
AGAUAUUUUGAAGAAAAAAAAAAUUCAAACAGAUUUAUCAAGGGUAACCAGCUUGGAGUCUAGCAAUUUUGCCAAUGUGCUUACCAAUUUGGGGGCUUGUUUUUCUUCCCUUCCUUACAU | 0.357
GAGAAAGACUUCCUAUGGAGCCACAGACACUACUGCGUAACUAUUCCUGAAAUCCUACCCAAAUUGCUUCUGUCUGUCAAGUGGAAUUCCAGAGACGAAGUGGCCCAGAUGUACUGCUUA | 0.223
CUGAAGCCAGCCAAUGUCUUCCUGGACAGCAAACACAAUGUCAAGCUGGGGGACUUUGGACUAGCUAGAAUAUUAAAUCACGACACGAGUUUUGCAAAAACGUUUGUUGGCACACCCUAU | 1.12
CAGCAAGUAGAGGCCAUUAAGAAAGAGAUGCAGGAAUUGAAGCUAAAUAGCAAUAACUCUGCAUCCCCUCAUCGCUGGCCGGCAGAGCCUUACGGACAAGACCCAGCUCCUGACGGAUAU | 0.108
GAGCAAUUUGAGAGGUACCUGCAUGACGAGAGCGGCUUGAACAGGCGGCACAUCAUUGAUAAUAGGGUGCAUUGUUGCUUUUACUUUAUUUCACCUUUUGGACAUGGACUUAAGCCCUUA | 0.251
AUCAAGCAGCUGAGCCAGAAUACAUACACUCCUCGUGAGGCUGGAUCUCAAAAAGAUGAAAGUCUUGCCUAUUAUAUUGAAAAUCAGUUCCAUGAAUUUAAAUUCAGCAAAGUCUGGCGA | 0.255
CUUCUUUACCCCCCCAAUGUUGGUGAUUGAAGAUCCUCUCUUCAGUGGCGUGAAUAAUGAUAGUUAACUUUCCAUUCAUACUUGGAACAAACCCCUUUGGUAAUGUCAAAGGCAGUACCU | 0.58
AAGGUGCUCUUAUUGCCUCCAGAUGUUUCUGCUUUGGCCACUCAAGCAGAGAUAGAGAGCAUAGUUAAACCCAAAGUUCUUGUGAAAGAAGCUGAGAAAAAACUUCCUUCCGAUACAGAA | 0.242

Set 4 — method: aptamer microarray, sandwich; form: DNA with 2'F-ANA; matrix: in vitro; concentration: 200 nM; added: Cy3 exosite-II aptamer, 400 nM; direction: higher = stronger binding; strand: GGTTGGTGTGGTTGG
Target: Prothrombin, mature alpha-thrombin (F2, Homo sapiens, UniProt P00734)
Notes: whole 15-mer aptamer, many near background
Modification | mean fluorescence intensity [a.u.]
2'F-ANA at 1 3 5 6 7 8 10 12 | 102
2'F-ANA at 1 2 5 7 8 10 15 | 49.5
2'F-ANA at 1 3 5 6 9 10 14 | 45.9
2'F-ANA at 1 3 5 6 8 9 10 11 13 15 | 48.6
2'F-ANA at 1 4 6 8 9 10 13 | 88.2
2'F-ANA at 1 2 3 4 8 9 10 12 | 76.3
2'F-ANA at 2 3 4 5 8 10 11 15 | 50.9
2'F-ANA at 1 9 10 12 13 14 15 | 46.7
2'F-ANA at 2 5 6 7 10 12 15 | 54
2'F-ANA at 8 9 11 12 13 14 | 201
2'F-ANA at 4 5 6 8 9 10 11 13 14 15 | 67.5
2'F-ANA at 2 3 5 7 8 10 11 12 14 | 48.5
2'F-ANA at 1 3 6 8 9 12 13 | 432
2'F-ANA at 2 4 5 7 8 9 10 11 13 14 | 48.8
2'F-ANA at 2 3 9 10 12 | 485
2'F-ANA at 1 2 3 7 8 9 10 11 13 15 | 67
2'F-ANA at 7 8 9 13 14 15 | 197
2'F-ANA at 1 2 4 6 7 8 10 11 12 14 15 | 51
2'F-ANA at 5 8 9 11 12 13 14 | 48.5
2'F-ANA at 2 3 5 6 7 9 10 12 13 15 | 55.7
2'F-ANA at 4 5 7 8 10 11 12 15 | 79.5
2'F-ANA at 2 4 9 10 | 104
2'F-ANA at 3 9 12 13 14 15 | 592

A few entries again (set 1):
Strand | fitted relative affinity [z-score]
GACGGTGTCGACACTGGGGACGTGCTA | 0.55
TTAGGTTTCCTGCTCCTTTAGTGCTAG | 3.36
GACGGAATGGACACTGGGGACGTGCTA | 0.0618
TCAGTTTCTCCTTTGTAACTGTGCTAG | 3.29
TCATATATCTTATCCTAACTGTGCTAG | 1.33
TCATTTCTCTGGTTCTTACTGTGCTAG | 2.2
